Measurements of several laboratories.
A part holds a random share of what one study measured.

Series 1
Target: Histone acetyltransferase KAT6A, winged helix 2, GST fusion (KAT6A, Homo sapiens, UniProt Q92794, residues 85-181)
Method: protein binding microarray
Molecule type: double-stranded DNA, one strand shown
Medium: in vitro
Tested at: not given
Setting: 8-mer, flanks averaged, mean of 2 arrays, mostly near background
Relative to: not given
Reading: higher = stronger binding
Residues (chain): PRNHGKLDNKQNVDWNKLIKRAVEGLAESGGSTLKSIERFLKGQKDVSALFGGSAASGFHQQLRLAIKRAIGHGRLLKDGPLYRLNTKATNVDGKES
| Sequence | E-score |
| --- | --- |
| AAGCGTAA | -0.00653 |
| CGGGTTGA | 0.0178 |
| CGTAGGAA | -0.0306 |
| ACGAGCAC | -0.0222 |
| ATGATGTA | -0.00079 |
| GATCCAGA | 0.169 |
| AAGCCCTA | -0.0946 |
| CACGCCGC | 0.197 |
| AGTAGATA | 0.0655 |
| AATTTCTA | 0.0406 |
| GAAACCCA | 0.122 |
| AGCAAGTC | -0.133 |
| AGGGCAAC | 0.0319 |
| CATCATCC | -0.107 |
| CGCCGACA | -0.017 |
| CGGTGGTC | -0.112 |
| ACCAATCC | -0.0981 |

Series 2
Target: Centromere-binding protein 1, full length, His-tagged (CBF1, Saccharomyces cerevisiae, UniProt P17106, residues 1-351)
Chain of UniProt P17106 (whole entry, looked up): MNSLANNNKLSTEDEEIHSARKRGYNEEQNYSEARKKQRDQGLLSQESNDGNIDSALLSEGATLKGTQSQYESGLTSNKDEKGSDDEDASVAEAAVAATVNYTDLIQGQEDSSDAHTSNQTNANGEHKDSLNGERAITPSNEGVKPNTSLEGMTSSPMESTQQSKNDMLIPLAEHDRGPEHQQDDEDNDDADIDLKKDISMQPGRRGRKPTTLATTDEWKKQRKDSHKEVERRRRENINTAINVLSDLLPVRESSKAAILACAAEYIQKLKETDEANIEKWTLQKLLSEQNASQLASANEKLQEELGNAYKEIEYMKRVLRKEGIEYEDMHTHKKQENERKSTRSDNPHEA
Method: competition protein-binding microarray
Molecule type: double-stranded DNA, one strand shown
Medium: in vitro
Tested at: 2 µM
Setting: whole 60-bp probe, lowest competitor level
Together with: Pho4 competitor, 0.05 µM
Reading: higher = stronger binding
| Sequence | fluorescence intensity [a.u.] |
| --- | --- |
| CGTCCTAGTGATTGTGCCGTGGGTGCCATGAGGAAGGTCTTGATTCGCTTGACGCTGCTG | 82.3 |
| CGTCCTAGTGATTTTCACGTGCACTCCATGAGGAAGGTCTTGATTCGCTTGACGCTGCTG | 1280 |
| TGCGCAACAACTTGAGTCGTGGGTGTATGTCTAGAAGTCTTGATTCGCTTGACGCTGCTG | 67 |
| GTCTTGTCTCATTGCCCGGTGGGTGTCCCCACTTCAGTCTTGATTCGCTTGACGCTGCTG | 65.1 |
| TTCAAGCTAAATGAAAATGATTTAAAGACATATAATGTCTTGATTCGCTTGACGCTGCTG | 94.1 |
| CTTCTGTAAATTTGAATAGTGGGTGGACGCGCCCCGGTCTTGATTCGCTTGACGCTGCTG | 91.2 |
| CATCGTACAGGGGTTCATGTGCTGGTGCAGTAATTCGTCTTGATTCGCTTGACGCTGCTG | 86.5 |
| GAGTGGTAGGGAAAGCACGTGTGGATTATTTACGATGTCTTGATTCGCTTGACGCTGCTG | 1370 |
| TCTTGGTTCCAAAGCAGCGTGTTGAAGAGAGGAACCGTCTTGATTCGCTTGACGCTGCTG | 66.4 |
| TGCTGCGGACAGTTCTCCGTGACGGGATCGCGCAATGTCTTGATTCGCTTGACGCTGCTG | 64.2 |
| CGTCCTAGCGATTGATGTGTGGGTGCCATGAGGAAGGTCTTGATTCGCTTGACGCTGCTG | 69.4 |
| CGTCCTAGCGATTGATCCGTGGGTGCCATGAGGAAGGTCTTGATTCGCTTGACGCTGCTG | 74.8 |
| CATACCCAACCTTGTTGCGTGGGTGAAGATATTTGTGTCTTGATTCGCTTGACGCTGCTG | 74.9 |
| CATACCCAACCTTGTCACAGAACTTAAGATATTTGTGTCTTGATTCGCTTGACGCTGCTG | 77.2 |
| GCATTAGGTACGATGCACGGGTGCACTGTTAAAAAAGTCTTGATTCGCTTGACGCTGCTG | 102 |
| CTAACGAAGGTTTGTTTAGTGGGTGACAAGCCAAGTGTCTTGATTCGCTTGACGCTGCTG | 76.1 |
| CGGGGTTAAGTTTGAGAGGTGGGTGGCTTGCAGCAGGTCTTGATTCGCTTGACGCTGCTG | 79.3 |
| AATCTCAGGTTTCGTCACGTTCTGGTGATGACTGTAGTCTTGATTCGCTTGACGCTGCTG | 303 |
| CTAACGAAGGTTTGATGAGTGGGTGACAAGCCAAGTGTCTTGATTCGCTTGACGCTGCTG | 64.6 |

Series 3
Target: Hepatocyte nuclear factor 3-alpha (Foxa1, Mus musculus, UniProt P35582, residues 1-468, full length assumed)
Chain of UniProt P35582 (whole entry, looked up): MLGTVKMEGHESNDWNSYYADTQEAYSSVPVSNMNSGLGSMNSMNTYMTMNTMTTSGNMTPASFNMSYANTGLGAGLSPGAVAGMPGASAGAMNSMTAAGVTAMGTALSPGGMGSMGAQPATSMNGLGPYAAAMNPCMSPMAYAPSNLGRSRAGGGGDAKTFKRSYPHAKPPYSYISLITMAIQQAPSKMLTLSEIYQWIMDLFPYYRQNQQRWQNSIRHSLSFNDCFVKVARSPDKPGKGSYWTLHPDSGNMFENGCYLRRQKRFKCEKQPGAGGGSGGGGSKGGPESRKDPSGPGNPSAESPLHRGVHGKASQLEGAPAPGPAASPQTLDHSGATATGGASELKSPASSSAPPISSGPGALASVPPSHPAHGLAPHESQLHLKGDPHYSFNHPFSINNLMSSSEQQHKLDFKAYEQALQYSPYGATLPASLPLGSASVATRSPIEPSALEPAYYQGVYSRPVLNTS
Method: EMSA with sequencing
Molecule type: double-stranded DNA, one strand shown
Medium: in vitro
Tested at: 10 and 20 nM
Setting: whole designed probe, mean of two concentrations, ends assumed
Relative to: negative control set to 0
Reading: higher = stronger binding
| Sequence | normalised bound fraction |
| --- | --- |
| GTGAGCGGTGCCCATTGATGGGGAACCTGTGTGATGTGGTAATCTAAATTTGAACAGATGCCCCGCATGTTATGTCAATATTTGAATTGCTATTATGGCTATGAATCAATATTTCTTTGTAAACATCCTTATTTCAAGTGGCTTGAATCACAGCCCTATGGTTAAATACACAGACTGTAGTTTAACTGCCTGATTTCATAACCCAACTCCAGCATTCACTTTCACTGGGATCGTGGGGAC | 0.43 ratio |
| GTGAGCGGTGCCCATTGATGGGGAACTCCTCATTAAATTTCAAGTTTCCACAAAATAAGAAAAGAAACAACTAAAGAAGAAATTGTTGGAAGGCATGGAGCAAAGTGTAAGAACAACTAAGTAATCTTGTACATTTTGCATTTTTAAAAAATTCAGTGGCCATAATACCACTGGCCAACAGGCTGATCAAATAATCCCTGAAACAAAGAGTTATATGTTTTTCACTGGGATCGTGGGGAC | 0.0812 ratio |
| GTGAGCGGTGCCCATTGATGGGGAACCTTGTCTACAATCCAGTATTTAATAGCAACTTCATCTACCAAGTGGGATAATGAATTACAAATGATAAGATGTGATCTCAAATGTTTTAGAAAAGTAATCTTGGGAGAAATAATTAAAAGTTGAAAGGCCTATTTGGAAAACAAAGGGAGAGTCATGGAGGTTTCTATCAAATTCCAGGGACAGGCAGTAGCATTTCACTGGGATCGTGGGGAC | -0.0325 ratio |
| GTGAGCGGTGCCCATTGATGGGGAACCAGGAGCCTAGCCCTGTCTTTCCTCTGAGAGAAATGGTTTAGTACTTGCTAATTCCATGTTTCTGGCAACTTTATAGAACATAACTCCACAAAGTAATCTAGAATTGATTGTAATTCACTGACAGCTCACAAATCTCCATTCCAGAGAGACTTTCCCTGACTTCTGTATTTAAAGCAGCACGACCCCTCCCCTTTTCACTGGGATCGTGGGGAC | -0.07 ratio |
| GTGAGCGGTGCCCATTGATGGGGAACACCAGTGCTATCTTCTGCCAACACCAGTAACAGCAGGCAGTAGGACTCCCTGAATAAACATTTTGAAGGCAAAGGTAAAGAAGGGTGGAATAAGCAAATAAGAAGTCACCATTCCTCCTGGAGTAAACCATTCCCTCCTCTGATTGCCTGAAGCTAACCATGAGACAGCAGGACTGGCTACATAATTTTCCAGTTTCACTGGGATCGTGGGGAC | 0.387 ratio |

Series 4
Target: RNA binding protein fox-1 homolog 2, RRM domain, GST-SBP tag (RBFOX2, Homo sapiens, UniProt O43251-10, residues 100-194)
Method: RNA Bind-n-Seq
Molecule type: RNA
Medium: in vitro
Tested at: 365 nM
Setting: natural RNA segment, single round, ends assumed
Relative to: no-protein control
Reading: higher = stronger binding
Target sequence (chain): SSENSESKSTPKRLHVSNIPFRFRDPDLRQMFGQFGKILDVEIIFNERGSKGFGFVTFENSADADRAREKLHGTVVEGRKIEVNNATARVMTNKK
| Sequence | RBNS enrichment (R) |
| --- | --- |
| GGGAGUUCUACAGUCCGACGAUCCUGGCUGAGGGGAGUGUCCAUCAUAUGAAAGGGAGACAGGAGAGGAAGCUCUCCGUUGUCUUUCAGUGAUACCCUCUUCCUUGCUUAAUUUGCUCUGAAAAGAAGCACAGUGGAAUUCUCGGGUGCCAA | 0.236 |
| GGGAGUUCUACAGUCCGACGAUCCAUGGGCACCUUGAUCAUGUCUUAACCUUCCCUUAACCUUGGGGCUCCCAAGCCAGAGUCAAGGUCUGACGCCACCUCAAGGUGACAGCUCAUCUCCAGCACAGCACAGGUGGAAUUCUCGGGUGCCAA | 0.427 |
| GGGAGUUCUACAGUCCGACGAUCGGCGCGGUGGCUCACGCCUGUAAUCCCAGCACUUUGGGAGGCCAAGGUGGGCGGAUCACAAGGUCAGGAGUUCGAGACCAACCUAGCCAACAUGGUGAAACCCCGUCUCUUGGAAUUCUCGGGUGCCAA | 0.208 |
| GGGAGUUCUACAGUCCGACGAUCUAAAUAAGUGCAUUGAGAAGAACAUGGAGAGGAUGCUGUCCUCUGCAACAGAGACAGGCCCGUGGCGGGGCGCCUCUGGUCCUGGUGCUCAUCACGGCUGGCUUCUCUGAUGGAAUUCUCGGGUGCCAA | 0.746 |
| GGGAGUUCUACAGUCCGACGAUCUGAGUGCCUUUUUGAACGCUGCUCCACAGGGCCUGGGUUUUCUUGAGCUCUUCUGUCCAAAGAUGGCUGCGGGCUAAGCAAGGUCCUGCCCUGGGUGGAUACUUGAACCAUGGAAUUCUCGGGUGCCAA | 0.233 |
| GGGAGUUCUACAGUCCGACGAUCUCCCUUACCUGCCUACCACUAGUGUCACGCAUAGUGUCACAGUGCUUCUGAUACACUCUCAUCUUGAUCAUAUUUUAAAUCAAGCGUUUUCCUGUAGCUGUCAAGUGGUCUGGAAUUCUCGGGUGCCAA | 0.368 |
| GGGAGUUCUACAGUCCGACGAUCUGACUCUGCUUGAGAGGUGGCACUUGUCGAACAGCCUGGCACCUGGUAUCCAGGCUCCAACGACCUCAUGCAGGACUCAGACCUGACCCACUGAAUCCCGAGGAGAGGCUUGGAAUUCUCGGGUGCCAA | 0.782 |
| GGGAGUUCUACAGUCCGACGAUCCGGGCUGGGGGCAGGAGGAAUCUGCCAAAGACCGACAGUCUUCCUUUACUGCACUUCACAAGGUUCUAAGAUGUGGAGAGUUCACUUGGAUUGCAGUAGCCCAUUGGUUGUGGAAUUCUCGGGUGCCAA | 0.743 |

Excerpt of the above (series 4):
| Sequence | RBNS enrichment (R) |
| --- | --- |
| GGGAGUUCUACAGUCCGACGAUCCAUGGGCACCUUGAUCAUGUCUUAACCUUCCCUUAACCUUGGGGCUCCCAAGCCAGAGUCAAGGUCUGACGCCACCUCAAGGUGACAGCUCAUCUCCAGCACAGCACAGGUGGAAUUCUCGGGUGCCAA | 0.427 |
| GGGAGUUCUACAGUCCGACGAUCGGCGCGGUGGCUCACGCCUGUAAUCCCAGCACUUUGGGAGGCCAAGGUGGGCGGAUCACAAGGUCAGGAGUUCGAGACCAACCUAGCCAACAUGGUGAAACCCCGUCUCUUGGAAUUCUCGGGUGCCAA | 0.208 |
| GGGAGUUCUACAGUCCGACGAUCUAAAUAAGUGCAUUGAGAAGAACAUGGAGAGGAUGCUGUCCUCUGCAACAGAGACAGGCCCGUGGCGGGGCGCCUCUGGUCCUGGUGCUCAUCACGGCUGGCUUCUCUGAUGGAAUUCUCGGGUGCCAA | 0.746 |
